Measurements from different studies.
Protocols differ between the studies behind these lines.
Method: steady-state kinetics
B1: protein (Trypanosoma brucei, UniProt Q382C3); chain MKRSVSKVWLNEDTPNDPYPLYAPSPLPPKRPGTIRVWVDGCFDMLHFGHANALRQARSMGDELFVGCHTDEEIIRHKGPPSMRQEERYEALRACKWVDAVIEGYPYVTRVEDMKRFEVDFVVHGDDISVDLNGRNSYQAIIDAGMFKAVRRTECISTTDLVGRMLLCVPSELLSDADKKLLDSEVARKRGPHYLTTSRKIAQFSNKLAPPVGATVVYVDGAFDLFHAGHIRFLQKARALGDYLIVGIHDDQLVRESKGEHFPIMSLNERALGVLSCRYVDDVVFGAPRGVTQEMIKILDIKIVACGTSSETRNCKGAFDVYEVPKSLNLFKVVESGSDLSTDMIVERVVKNHVVLLERQFLKHMKDSEAELRKPDVYRNVREV
B2: HARS1 Y454S (Homo sapiens, UniProt P12081); chain MAERAALEELVKLQGERVRGLKQQKASAELIEEEVAKLLKLKAQLGPDESKQKFVLKTPKGTRDYSPRQMAVREKVFDVIIRCFKRHGAEVIDTPVFELKETLMGKYGEDSKLIYDLKDQGGELLSLRYDLTVPFARYLAMNKLTNIKRYHIAKVYRRDNPAMTRGRYREFYQCDFDIAGNFDPMIPDAECLKIMCEILSSLQIGDFLVKVNDRRILDGMFAICGVSDSKFRTICSSVDKLDKVSWEEVKNEMVGEKGLAPEVADRIGDYVQQHGGVSLVEQLLQDPKLSQNKQALEGLGDLKLLFEYLTLFGIDDKISFDLSLARGLDYYTGVIYEAVLLQTPAQAGEEPLGVGSVAAGGRYDGLVGMFDPKGRKVPCVGLSIGVERIFSIVEQRLEALEEKIRTTETQVLVASAQKKLLEERLKLVSELWDAGIKAELLYKKNPKLLNQLQSCEEAGIPLVAIIGEQELKDGVIKLRSVTSREEVDVRREDLVEEIKRRTGQPLCIC
B3: pyc H216N (Rhizobium etli, UniProt Q2K340); chain MPISKILVANRSEIAIRVFRAANELGIKTVAIWAEEDKLALHRFKADESYQVGRGPHLARDLGPIESYLSIDEVIRVAKLSGADAIHPGYGLLSESPEFVDACNKAGIIFIGPKADTMRQLGNKVAARNLAISVGVPVVPATEPLPDDMAEVAKMAAAIGYPVMLKASWGGGGRGMRVIRSEADLAKEVTEAKREAMAAFGKDEVYLEKLVERARNVESQILGDTHGNVVHLFERDCSVQRRNQKVVERAPAPYLSEAQRQELAAYSLKIAGATNYIGAGTVEYLMDADTGKFYFIEVNPRIQVEHTVTEVVTGIDIVKAQIHILDGAAIGTPQSGVPNQEDIRLNGHALQCRVTTEDPEHNFIPDYGRITAYRSASGFGIRLDGGTSYSGAIITRYYDPLLVKVTAWAPNPLEAISRMDRALREFRIRGVATNLTFLEAIIGHPKFRDNSYTTRFIDTTPELFQQVKRQDRATKLLTYLADVTVNGHPEAKDRPKPLENAARPVVPYANGNGVKDGTKQLLDTLGPKKFGEWMRNEKRVLLTDTTMRDGHQSLLATRMRTYDIARIAGTYSHALPNLLSLECWGGATFDVSMRFLTEDPWERLALIREGAPNLLLQMLLRGANGVGYTNYPDNVVKYFVRQAAKGGIDLFRVFDCLNWVENMRVSMDAIAEENKLCEAAICYTGDILNSARPKYDLKYYTNLAVELEKAGAHIIAVKDMAGLLKPAAAKVLFKALREATGLPIHFHTHDTSGIAAATVLAAVEAGVDAVDAAMDALSGNTSQPCLGSIVEALSGSERDPGLDPAWIRRISFYWEAVRNQYAAFESDLKGPASEVYLHEMPGGQFTNLKEQARSLGLETRWHQVAQAYADANQMFGDIVKVTPSSKVVGDMALMMVSQDLTVADVVSPDREVSFPESVVSMLKGDLGQPPSGWPEALQKKALKGEKPYTVRPGSLLKEADLDAERKVIEKKLEREVSDFEFASYLMYPKVFTDFALASDTYGPVSVLPTPAYFYGLADGEELFADIEKGKTLVIVNQAVSATDSQGMVTVFFELNGQPRRIKVPDRAHGATGAAVRRKAEPGNAAHVGAPMPGVISRVFVSSGQAVNAGDVLVSIEAMKMETAIHAEKDGTIAEVLVKAGDQIDAKDLLAVYGG
B4: BshA S17A (Bacillus subtilis, UniProt P42982); chain MRKLKIGITCYPSVGGAGIIATELGKQLAEKGHEIHFITSSIPFRLNTYHPNIHFHEVEVNQYAVFKYPPYDLTLASKIAEVAERENLDIIHAHYALPHAVCAYLAKQMLKRNIGIVTTLHGTDITVLGYDPSLKDLIRFAIESSDRVTAVSSALAAETYDLIKPEKKIETIYNFIDERVYLKKNTAAIKEKHGILPDEKVVIHVSNFRKVKRVQDVIRVFRNIAGKTKAKLLLVGDGPEKSTACELIRKYGLEDQVLMLGNQDRVEDLYSISDLKLLLSEKESFGLVLLEAMACGVPCIGTNIGGIPEVIKNNVSGFLVDVGDVTAATARAMSILEDEQLSNRFTKAAIEMLENEFSSKKIVSQYEQIYADLAEPE
B5: enzyme (Rattus norvegicus, UniProt P06757); chain STAGKVIKCKAAVLWEPHKPFTIEDIEVAPPKAHEVRIKMVATGVCRSDDHAVSGSLFTPLPAVLGHEGAGIVESIGEGVTCVKPGDKVIPLFSPQCGKCRICKHPESNLCCQTKNLTQPKGALLDGTSRFSCRGKPIHHFISTSTFSQYTVVDDIAVAKIDAAAPLDKVCLIGCGFSTGYGSAVQVAKVTPGSTCAVFGLGGVGLSVVIGCKTAGAAKIIAVDINKDKFAKAKELGATDCINPQDYTKPIQEVLQEMTDGGVDFSFEVIGRLDTMTSALLSCHSACGVSVIVGVPPSAQSLSVNPMSLLLGRTWKGAIFGGFKSKDAVPKLVADFMAKKFPLEPLITHVLPFEKINEAFDLLRAGKSIRTVLTF
B6: ASRGL1 (Homo sapiens, UniProt Q7L266); chain 1 MNPIVVVHGGGAGPISKDRKERVHQGMVRAATVGYGILREGGSAVDAVEGAVVALEDDPEFNAGCGSVLNTNGEVEMDASIMDGKDLSAGAVSAVQCIANPIKLARLVMEKTPHCFLTDQGAAQFAAAMGVPEIPGEKLVTERNKKRLEKEKHEKGAQKTDCQKNLG; chain 2 TVGAVALDCKGNVAYATSTGGIVNKMVGRVGDSPCLGAGGYADNDIGAVSTTGHGESILKVNLARLTLFHIEQGKTVEEAADLSLGYMKSRVKGLGGLIVVSKTGDWVAKWTSTSMPWAAAKDGKLHFGIDPDDTTITDLP
B7: XoxF methanol dehydrogenase (Methylacidiphilum fumariolicum, UniProt I0JWN7); chain NDELIKLEKEPGQWVMQNKNYANTRYSELNQINTKNVSRLRLAWSFSTGALRGHEGGPLVVGTTMYVHSAYPNHVYALDLTQKPYAIKWQYTPVQNSQAVAVACCDVVNRGLAYANGKIFMTTLDGQIIALDANTGKELWKMKHADVTKGETITGAPLVVKDKVLVGVSGGEFGVRGRVGAYDINTGNRVWLAYSQGPDEEVLLDSDFNKEFPQHGGPGDGTKTWPGEQWKLGGGTTWGWYSYDPALDLFYYGTSNPGTWNAEQRKGGDNKWSCTIFARRPDTGKARWAYQMTPWDSWDYDGVNEMILPDLTVKGKKTPCLVHFDRNGFGYVLDRRTGQLIEAQPFVYVNWAKEISKENDRPVEIPEKRTKQGVDTKGICPNSMGGKDQQPAAFSPQTGLFYVPTNNMCMNYEGVEATYTAGAPYVGANVLMYSGHEGKDDYYGAFICYDALKGKRVWEIHEHFPVWSGPVVTAGGLAFYGTMDGWFKAVDIKTGKVLWQQKLGSGIIGNPITFLGPDKKQYVAVYSGVGGWFGIAVAQNLPPDDPYAGLGAVGVAYQAGLPKATTVGGELYVFALE
B8: GTPBP3 A322P/E225K (Homo sapiens, UniProt Q969Y2); chain TRRSSGAPAPGSGATIFALSSGQGRCGIAVIRTSGPASGHALRILTAPRDLPLARHASLRLLSDPRSGEPLDRALVLWFPGPQSFTGEDCVEFHVHGGPAVVSGVLQALGSVPGLRPAEAGEFTRRAFANGKLNLTEVEGLADLIHAETEAQRRQALRQLDGELGHLCRGWAETLTKALAHVEAYIDFGEDDNLEEGVLEQADIKVRALQVALGAHLRDARRGQRLRSGVHVVVTGPPNAGKSSLVNLLSRKPVSIVSPEPGTTRDVLETPVDLAGFPVLLSDTAGLREGVGPVEQEGVRRPRERLEQADLILAMLDASDLASPSSCNFLATVVASVGAQSPSDSSQRLLLVLNKSDLLSPEGPGPGPDLPPHLLLSCLTGEGLDGLLEALRKELAAVCGDPSTDPPLLTRARHQHHLQGCLDALGHYKQSKDLALAAEALRVARGHLTRLTGGGGTEEILDIIFQDFCVGK
UniProt Q07534, sequence (whole entry, looked up): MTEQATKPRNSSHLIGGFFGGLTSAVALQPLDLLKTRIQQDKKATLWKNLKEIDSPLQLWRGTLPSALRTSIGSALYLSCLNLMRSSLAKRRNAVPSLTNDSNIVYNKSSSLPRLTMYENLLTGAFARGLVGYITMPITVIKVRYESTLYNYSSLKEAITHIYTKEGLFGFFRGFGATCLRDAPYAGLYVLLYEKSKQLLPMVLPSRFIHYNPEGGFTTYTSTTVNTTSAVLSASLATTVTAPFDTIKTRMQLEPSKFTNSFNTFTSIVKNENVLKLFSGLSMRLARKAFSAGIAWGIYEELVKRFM
UniProt Q99518, sequence (whole entry, looked up): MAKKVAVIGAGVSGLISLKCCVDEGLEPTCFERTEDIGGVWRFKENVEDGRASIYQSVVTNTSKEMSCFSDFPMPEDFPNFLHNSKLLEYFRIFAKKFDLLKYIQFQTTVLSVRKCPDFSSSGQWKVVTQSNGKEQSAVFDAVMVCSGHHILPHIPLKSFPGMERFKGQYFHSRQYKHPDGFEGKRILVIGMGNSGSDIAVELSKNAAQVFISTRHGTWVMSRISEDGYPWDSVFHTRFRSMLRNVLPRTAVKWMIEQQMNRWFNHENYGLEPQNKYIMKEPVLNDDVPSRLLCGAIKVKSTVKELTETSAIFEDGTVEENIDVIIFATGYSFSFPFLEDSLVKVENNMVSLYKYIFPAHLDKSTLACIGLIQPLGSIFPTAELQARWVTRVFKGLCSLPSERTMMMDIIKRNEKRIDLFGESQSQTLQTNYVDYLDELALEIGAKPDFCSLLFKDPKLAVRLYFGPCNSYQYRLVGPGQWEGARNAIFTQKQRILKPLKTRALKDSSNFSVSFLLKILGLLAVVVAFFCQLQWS
UniProt Q497L9, sequence (whole entry, looked up): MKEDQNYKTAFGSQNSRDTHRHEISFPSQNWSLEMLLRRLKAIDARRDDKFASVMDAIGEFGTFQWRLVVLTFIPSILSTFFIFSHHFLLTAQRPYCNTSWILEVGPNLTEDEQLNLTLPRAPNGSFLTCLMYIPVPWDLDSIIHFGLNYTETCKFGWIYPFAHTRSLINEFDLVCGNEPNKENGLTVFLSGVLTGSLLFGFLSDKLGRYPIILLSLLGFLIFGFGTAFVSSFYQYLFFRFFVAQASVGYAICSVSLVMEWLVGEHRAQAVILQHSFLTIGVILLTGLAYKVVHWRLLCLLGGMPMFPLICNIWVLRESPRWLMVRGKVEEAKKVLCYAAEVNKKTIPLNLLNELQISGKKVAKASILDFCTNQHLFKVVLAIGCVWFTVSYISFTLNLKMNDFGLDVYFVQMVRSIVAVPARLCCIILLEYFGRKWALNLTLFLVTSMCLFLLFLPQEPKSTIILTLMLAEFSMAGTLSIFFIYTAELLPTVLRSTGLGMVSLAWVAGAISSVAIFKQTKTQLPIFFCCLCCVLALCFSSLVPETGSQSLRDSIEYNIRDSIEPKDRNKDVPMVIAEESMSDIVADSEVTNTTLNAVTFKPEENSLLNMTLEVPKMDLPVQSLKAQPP
UniProt Q9UBT6, sequence (whole entry, looked up): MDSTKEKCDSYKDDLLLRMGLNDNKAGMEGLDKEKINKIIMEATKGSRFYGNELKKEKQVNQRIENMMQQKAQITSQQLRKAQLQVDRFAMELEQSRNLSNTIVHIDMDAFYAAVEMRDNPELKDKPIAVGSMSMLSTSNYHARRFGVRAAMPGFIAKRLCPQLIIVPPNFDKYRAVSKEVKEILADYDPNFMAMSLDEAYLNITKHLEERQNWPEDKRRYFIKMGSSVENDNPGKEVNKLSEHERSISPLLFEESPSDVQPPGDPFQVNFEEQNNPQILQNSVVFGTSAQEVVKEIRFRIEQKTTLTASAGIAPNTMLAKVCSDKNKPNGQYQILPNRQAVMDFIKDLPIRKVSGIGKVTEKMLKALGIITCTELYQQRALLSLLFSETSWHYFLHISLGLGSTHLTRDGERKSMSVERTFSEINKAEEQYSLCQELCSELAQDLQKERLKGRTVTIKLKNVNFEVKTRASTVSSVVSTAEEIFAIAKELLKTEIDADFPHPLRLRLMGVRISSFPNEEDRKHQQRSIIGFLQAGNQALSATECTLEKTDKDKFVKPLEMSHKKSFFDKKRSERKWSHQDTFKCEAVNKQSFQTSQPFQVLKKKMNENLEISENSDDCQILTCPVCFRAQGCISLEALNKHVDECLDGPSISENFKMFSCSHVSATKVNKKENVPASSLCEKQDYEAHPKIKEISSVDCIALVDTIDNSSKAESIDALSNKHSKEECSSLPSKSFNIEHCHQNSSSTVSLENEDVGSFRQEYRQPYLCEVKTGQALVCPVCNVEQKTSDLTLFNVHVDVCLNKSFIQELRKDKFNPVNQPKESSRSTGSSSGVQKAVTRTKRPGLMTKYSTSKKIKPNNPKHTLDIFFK
UniProt P45370, sequence (whole entry, looked up): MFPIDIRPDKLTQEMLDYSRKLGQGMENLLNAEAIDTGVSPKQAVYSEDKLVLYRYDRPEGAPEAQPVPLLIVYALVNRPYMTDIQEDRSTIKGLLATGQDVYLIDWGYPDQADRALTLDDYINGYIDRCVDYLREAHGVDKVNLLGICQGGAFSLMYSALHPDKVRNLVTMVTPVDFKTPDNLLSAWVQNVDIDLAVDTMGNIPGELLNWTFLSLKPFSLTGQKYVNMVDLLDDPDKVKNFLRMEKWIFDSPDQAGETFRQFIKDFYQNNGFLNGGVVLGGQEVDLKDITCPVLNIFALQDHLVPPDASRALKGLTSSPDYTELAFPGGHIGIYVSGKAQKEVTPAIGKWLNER

Substance	substrate	medium	pH	temperature	notes	with	Km
B1 (protein)	NCCOP(=O)(O)O		pH 7.5			CTP 0.1 mM	12.1 µM
RALBP1 (Homo sapiens, UniProt Q15311)	CCN(CC)CCNC(=O)c1c(C)[nH]c(/C=C2\C(=O)Nc3ccc(F)cc32)c1C		pH 7.4	37 °C			7.2 µM
DAD V1M (Burkholderia sp.)	O=C(CO)c1ccc(O)cc1		pH 6	20 °C		O2	0.63 µM
FMO2 (Homo sapiens, UniProt Q99518)	CN1CCC[C@H]1c1cccnc1	HEK293 microsomes		37 °C	not purified	NADPH regenerating system	4500 µM
protein (Zea mays, UniProt A0A2H4PMI3)	O=CCCCC(=O)O		pH 7.5	30 °C	substrate inhibition	NAD+ 3.0 mM	84 µM
B2 (HARS1 Y454S)	N[C@@H](Cc1c[nH]cn1)C(=O)O		pH 7.5	37 °C	KCl 150 mM	tRNA(His)	4.7 µM
B3 (pyc H216N)	Nc1ncnc2c1ncn2[C@@H]1O[C@H](COP(=O)(O)OP(=O)(O)OP(=O)(O)O)[C@@H](O)[C@H]1O		pH 7.8	30 °C	no pyruvate	NaHCO3 20 mM, acetyl CoA 0.25 mM, Mg2+ 5 mM	82 µM
B4 (BshA S17A)	O=C(O)C[C@H](O)C(=O)O		pH 7.5	21 °C		UDP-GlcNAc 0–4 mM	10000 µM
enzyme (Saccharomyces cerevisiae, UniProt Q07534)	C=C(C)CCO[P@@](=O)(O)OP(=O)(O)O		pH 7.4		not purified		11 µM
B5 (enzyme)	OC1CCCC1		pH 7.3	37 °C			320 µM
B6 (ASRGL1)	N[C@@H](CC(=O)N[C@@H](Cc1ccccc1)C(=O)O)C(=O)O		pH 7.4	37 °C	NaCl 100 mM		400 µM
protein (Allochromatium vinosum, UniProt P45370)	CC[C@@H](O)CC(=O)SCCNC(=O)CCNC(=O)[C@H](O)C(C)(C)COP(=O)(O)OP(=O)(O)OC[C@H]1O[C@@H](n2cnc3c(N)ncnc32)[C@H](O)[C@@H]1OP(=O)(O)O		pH 7.8	30 °C			110 µM
MCM2-7 (Drosophila melanogaster)	Nc1ncnc2c1ncn2[C@@H]1O[C@H](COP(=O)(O)OP(=O)(O)OP(=O)(O)O)[C@@H](O)[C@H]1O		pH 7.6	30 °C	no DNA	ATP 0.03 µM-3 mM, magnesium acetate 10 mM	131 µM
anthranilate synthase (Streptomyces venezuelae, UniProt O30589)	NC(=O)CC[C@H](N)C(=O)O		pH 7.5	30 °C		chorismate saturating; MgCl2 12.5 mM	840 µM
B7 (XoxF methanol dehydrogenase)	CO		pH 7.2	45 °C		EuCl3 20 µM, PES 1 mM, DCPIP 80 µM	3.62 µM
POLK (Homo sapiens, UniProt Q9UBT6)	Cc1cn([C@H]2C[C@H](O)[C@@H](COP(=O)(O)OP(=O)(O)OP(=O)(O)O)O2)c(=O)[nH]c1=O		pH 8	37 °C	misinsertion opposite dT	Mg2+	120 µM
enzyme (Mus musculus, UniProt Q497L9)	Cc1cc2nc3c(=O)[nH]c(=O)nc-3n(C[C@H](O)[C@H](O)[C@H](O)CO)c2cc1C			37 °C	not purified		0.923 µM
B8 (GTPBP3 A322P/E225K)	Nc1nc2c(ncn2[C@@H]2O[C@H](COP(=O)(O)OP(=O)(O)OP(=O)(O)O)[C@@H](O)[C@H]2O)c(=O)[nH]1		pH 8	37 °C	KCl 300 mM		37.8 µM

Excerpt of the above:
Substance	substrate	medium	pH	temperature	notes	with	Km
FMO2 (Homo sapiens, UniProt Q99518)	CN1CCC[C@H]1c1cccnc1	HEK293 microsomes		37 °C	not purified	NADPH regenerating system	4500 µM
protein (Zea mays, UniProt A0A2H4PMI3)	O=CCCCC(=O)O		pH 7.5	30 °C	substrate inhibition	NAD+ 3.0 mM	84 µM
B1 (protein)	NCCOP(=O)(O)O		pH 7.5			CTP 0.1 mM	12.1 µM
